{"data": "Experimental data gathered from unrelated publications", "ALK": "ALK tyrosine kinase receptor (ALK, Homo sapiens, UniProt Q9UM73)", "ALK L1196M": "ALK tyrosine kinase receptor (ALK, Homo sapiens, UniProt Q9UM73, L1196M)", "ALK C1156Y": "ALK tyrosine kinase receptor (ALK, Homo sapiens, UniProt Q9UM73, C1156Y)"}
{"Structure (SMILES)": "CC(C)=CC1OC(C)(C)C2C=C3C(=O)C(Cl)=CC(O)C3C3C(O)C4OC4C(=O)C132 (centres unmarked)", "target": "ALK", "assay": "cell-free assay, competition with immobilised ligand", "conditions": "10 µM", "remaining binding [%]": 79}
{"Structure (SMILES)": "C=CC(=O)N1CCCC(n2c(=O)c3ncccc3n(Cc3ccc(Oc4ccccc4)cc3)c2=O)C1 (centres unmarked)", "target": "ALK L1196M", "assay": "cell-free assay, competition with immobilised ligand", "conditions": "1 µM", "remaining binding [%]": 100}
{"Structure (SMILES)": "COc1ccc(NC(=O)Nc2ccc3c(c2)C(=O)N(C(C)CO)CC(C)C(CN(C)Cc2ccc4c(c2)OCO4)O3)cc1 (centres unmarked)", "target": "ALK", "assay": "binding, competition with immobilised ligand", "conditions": "10 µM", "remaining binding [%]": 100}
{"Structure (SMILES)": "Nc1ncc2c(n1)-c1c([nH]c3ccc(C4=CCOCC4)cc13)CCC2", "target": "ALK", "assay": "binding, competition with immobilised ligand", "conditions": "1 µM", "remaining binding [%]": 97}
{"Structure (SMILES)": "CNC1C[S+]2CC[S+]3CC[S+](C1)[Ru-4]321([N]=C=S)[n]2c3ccc(OC)cc3c3c4c(c5cc(F)c[n+]1c5c32)C(=O)NC4=O (centres unmarked)", "target": "ALK C1156Y", "assay": "KinomeScan", "conditions": "0.1 µM", "how to read": "baseline: untreated", "remaining binding [%]": 83}
{"Structure (SMILES)": "CNC(=O)C1CCN(c2cc(C)c(F)cc2NC(=O)c2ccc(-c3cc(O)ccc3C)c(C)c2)CC1", "target": "ALK C1156Y", "assay": "binding, competition with immobilised ligand", "conditions": "1 µM", "remaining binding [%]": 100}
{"Structure (SMILES)": "C=CC(=O)N1CCc2ccc(-n3c(=O)ccc4cnc5ccc(-c6cnn(C)c6)cc5c43)cc21", "target": "ALK C1156Y", "assay": "KINOMEscan", "conditions": "1 µM", "how to read": "baseline: DMSO control", "remaining binding [%]": 100}
{"Structure (SMILES)": "Cc1cnc2nc1Nc1cccc(c1)COC/C=C/COCc1cc(ccc1OCCN1CCOCC1)N2", "target": "ALK C1156Y", "assay": "binding", "conditions": "0.1 µM", "remaining binding [%]": 95}
{"Structure (SMILES)": "CN1CCN(Cc2ccc(NC(=O)c3cccc(C#Cc4cnc(N)c5ncccc45)c3)cc2C(F)(F)F)CC1", "target": "ALK", "assay": "cell-free assay, competition with immobilised ligand", "conditions": "50 nM", "remaining binding [%]": 81}
{"Structure (SMILES)": "CNS(=O)(=O)Nc1nccc(Cc2c(C)c3ccc(Oc4ncccc4F)cc3oc2=O)c1F", "target": "ALK", "assay": "cell-free assay, competition with immobilised ligand", "conditions": "10 µM", "remaining binding [%]": 98}
{"Structure (SMILES)": "COc1c(Cl)cccc1Nc1c(-c2ccncc2C#C[C@@]2(C)CCCN2C(=O)/C=C/CN(C)C)[nH]c2c1C(=O)NCC2", "target": "ALK L1196M", "assay": "cell-free assay, competition with immobilised ligand", "conditions": "3 µM", "remaining binding [%]": 83}
